# Measured values collected from several papers.
# Each numbered part is a random draw from the data of one study; scales do not carry over between parts. Changes are numbered by the printed parent chain.

# Sample 1
# Target: RNA binding protein fox-1 homolog 2, RRM domain, GST-SBP tag (RBFOX2, Homo sapiens, UniProt O43251-10, residues 100-194)
# Method: RNA Bind-n-Seq
# Molecule type: RNA
# Medium: in vitro
# Tested at: 365 nM
# Setting: natural RNA segment, single round, ends assumed
# Reference: no-protein control
# Direction: higher = stronger binding
# Residues (chain): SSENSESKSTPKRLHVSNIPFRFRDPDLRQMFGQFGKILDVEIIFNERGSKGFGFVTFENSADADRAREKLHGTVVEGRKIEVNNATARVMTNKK
Sequence,RBNS enrichment (R)
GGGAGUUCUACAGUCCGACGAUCUUUUAUUUAUGUCCUUGUGACCCAGGUACUUGGGGGGCCAGCUACCCUUCUGGCCUUUUAGCGUCUUUGAAGGAGACCAGACAUGAGUGAAUACCUAGGAGAGUGUCAGCUGGAAUUCUCGGGUGCCAA,0.38
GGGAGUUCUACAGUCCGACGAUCUGUCCCUCCUCACAAGUGCUUAGUUUCUGUUAACUAGAAGUAUCAUUCUUGGGUGGAAAUAGGUCUCCGUUUACCUGAGCUGAGGGUUGUUUGGAAAAUAAGAGCCAAUUUGGAAUUCUCGGGUGCCAA,0.356
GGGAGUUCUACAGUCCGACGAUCCCUCCAUCUAAAGGCAACAUUCCUUACCCAUUAGUCUCAGAAAUUGUCUUAAGCAACAGCCCCAAAUGCUGGCUGCCCCCAGCCAAGCAUUGGGGCCGCCAUCCUGCCUGUGGAAUUCUCGGGUGCCAA,0.228
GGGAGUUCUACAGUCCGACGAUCUAAAUGAGGAGGGAGAAGAUAAAGGAAACUUCUAGCCCCUGUCCUUAGUGCUUUGAGGAUUUUAUUUUCUCCCUUACUACGCUUGCUUGACGUCACUCUCUCUCGACCUCUGGAAUUCUCGGGUGCCAA,1.07
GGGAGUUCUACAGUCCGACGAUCUACUUUGAGACUCACCUCUCAUAAAGCUUCUUUUUCACAUUACUGUUAAAGACCAGACGUUCUAGAAAAGACCCCUCCUCUCAUGAGCUCCCCCAUCCCUGCUACAGAACUGGAAUUCUCGGGUGCCAA,0.514
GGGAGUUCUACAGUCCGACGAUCUGAACCAAACCAACUGUGUGACUGUCUGAUGUGCCACCUCACUCAGAGGGAAGCUCUAACAUUGCCUCUGUAAUAUAAUGCUAGUGACUGUAUGUAGUACAUGUUAUAUGUGGAAUUCUCGGGUGCCAA,0.685
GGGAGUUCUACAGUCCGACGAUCCUUUGCUUUUCUCCCCAUAUCCCAAGGCGAAGCGCUGAGAUUCUUCCAUCUAAAAAACCCUCGACCCGAAACCCUCACCAGAUAAACUACAGUUUGUUUAGGAGGCCCUGUGGAAUUCUCGGGUGCCAA,0.465
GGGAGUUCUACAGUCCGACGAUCUCAGAAGAGUAUCUUCAGUAAGAGGAGAGUAACUUUUUUUUUGCUGCUCCCGCUAUAUCCCAGGCCUCACCCUUUUCUGAUCAUUAUCAGAAAGAAUCCCCUGAACUUUUUGGAAUUCUCGGGUGCCAA,0.304
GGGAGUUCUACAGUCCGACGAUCCAAGCGCAUUACCCACUUGUGGCCAAUCAGUGGCCAGGCCAACCUUGGCUAAAUGGAGCAGCGAAAUCAACGAGAAACUGGACUUUUUAAACCCUCUUCAGAGCAAGCGUUGGAAUUCUCGGGUGCCAA,0.376
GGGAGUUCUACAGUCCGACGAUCGCCUCUGGGAACCGGGCUGGUGCCCUGCCUUUCCUGAGCAGGGCUCCUCCUCCAGAAGCGGUGGUCCAGGGGGUGGGGCUCUUAGUCCCUCUGGCCUUCCCCAUAUUACAUGGAAUUCUCGGGUGCCAA,0.26
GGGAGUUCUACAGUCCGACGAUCACGUCGGAUGCUACCCCACUAUGACAGAGGAUUGUGGUCACAACUUGAUGGCUGCGAAGACCUACCCUCCGUUUUUCUACUAGAUAGGAGGAUGGUAGAAGUUUGGCUGCUGGAAUUCUCGGGUGCCAA,0.392
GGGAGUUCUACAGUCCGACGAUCUGUAACUUAAUACCAGUAGUCAACCACUGGAUCUCAGUUUUCAUCAAGUAUUUUAAAUAAAUAAUCUUAAAUUUUAAAAUACGUACUGCAGAGUAUGCCAGUAUCUUAUUUGGAAUUCUCGGGUGCCAA,0.508

# Sample 2
# Target: RING finger protein unkempt homolog, zinc fingers 1-6, GST-SBP tag (UNK, Homo sapiens, UniProt Q9C0B0, residues 30-357)
# Sequence of UniProt Q9C0B0 (30-357, looked up): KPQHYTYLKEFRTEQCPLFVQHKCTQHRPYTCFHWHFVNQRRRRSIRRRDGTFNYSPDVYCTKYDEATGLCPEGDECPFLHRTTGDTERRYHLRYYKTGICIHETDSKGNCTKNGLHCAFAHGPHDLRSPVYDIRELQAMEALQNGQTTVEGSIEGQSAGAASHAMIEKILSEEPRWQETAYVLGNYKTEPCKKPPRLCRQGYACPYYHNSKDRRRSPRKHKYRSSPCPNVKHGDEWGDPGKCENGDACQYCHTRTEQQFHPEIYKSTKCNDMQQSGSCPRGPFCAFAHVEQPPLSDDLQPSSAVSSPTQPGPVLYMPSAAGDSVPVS
# Method: RNA Bind-n-Seq
# Molecule type: RNA
# Medium: in vitro
# Tested at: not given
# Setting: RNA with constant flanks, human and mouse sites, ends assumed
# Reference: input RNA pool
# Direction: higher = stronger binding
Sequence,bound/input enrichment
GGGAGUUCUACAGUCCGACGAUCAGAGAUUUUAUUUGCAAGUUAAUCAAAUAUUGGACAUUUAGAUUUUUUCUACUUUCUGGCUAGUAUAAGUAAUGCUGCUAGAACAUUUAUGUAAUUUUUGUAUGUGGUCAUGGUUUCUUUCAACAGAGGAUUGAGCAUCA,6.29 ratio
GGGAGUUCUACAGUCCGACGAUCUUUUUUUCCUUUUUCUUUUAAUUUAAUGCUGUAGAGGGUGACUUGCCAUCGUGAGAGAUUGGUACAUGAUGUGUAAAUUCAGUUCAGCAUAUGUUUCUUCAUUAUGAAACCACUAGCAAUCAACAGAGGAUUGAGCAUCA,3.55 ratio
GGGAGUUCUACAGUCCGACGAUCGCCACUCCAUUUGUUCCCAAGCCUAGUACCAAACCUGCCCCUGGGGGCACAGCACCCUUGCCUCCUUGGAAGACCCCUUCUAGCUCCCAGCCACCACCUCAGCCGCAGGCCAAGCCUCAGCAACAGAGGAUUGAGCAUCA,0.787 ratio
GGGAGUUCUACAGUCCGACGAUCAAUAGACUGGUCAGCUCUGGAAUCUACAAAGCAGCGUUUCCUCUGCACGACUGCAGAUUCAACUAUGAGUCGGAGGACAUCAGUUGUCCUAGCGAGCGUUACCUCCUGUACAGAGAAUGGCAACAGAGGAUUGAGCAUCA,0.307 ratio
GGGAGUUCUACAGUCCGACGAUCGCCUCCCUGGGUCUAGAGAAGUUGGUAAGCCCUCCAGCCUCAGCCGCUGCUUCCAGCCCUAGCUCUUCUCCAUCUCCACAGCCCGUUUCAGAGCUUGACUUGUCCUCAGAGCCACAGCAGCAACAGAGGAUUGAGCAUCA,0.366 ratio
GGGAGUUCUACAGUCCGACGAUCACAUGCUUUUGUAACGAGCAAAUGUCUAAAGUGACAACACGGAAAAAUAAAUACAGGAUCAUCAUUGAGUUGCUUAACAAAUAUACUUAAGAACAUUAAUACAGUCAUUUUGAGAAAAGUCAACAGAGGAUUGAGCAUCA,0.269 ratio
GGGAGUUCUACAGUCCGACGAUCACUAAGACUGAAUAUGAACCUGAUCGCAAAAAAGGAAAAGCACGUCCUCCCAAGAUAGCCGAGUUCACCGUCAGCAUCACCGAGGGUGUCACCGAGAGGUUUAAGGUCUCCGUGCUGGUCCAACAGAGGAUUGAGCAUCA,0.105 ratio
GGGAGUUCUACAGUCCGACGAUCCUCCCUUUUCACCCACCUUUCCUCCCUCACCUCUCCUCACCUCCACCCCCUCCCCAGAGCACUAGUCAUGCCGCAAAUGCUAGGAAGUGCCAUUUUCAUUUUCUCCACUGUGCGUGUGUGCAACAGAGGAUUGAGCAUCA,0.888 ratio
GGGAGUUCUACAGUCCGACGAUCAGCAUUUGUCUCGAUAUUCUAAGAUCACAGUGGUCGCCUGCUUUAACAAUUUCUAAAGUUCUUUUAUCCAUUUGUUCACUGCUAUGUGAUCCAAACCCAGAUGACCCCCUAGUGCCAGAGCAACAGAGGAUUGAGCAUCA,0.286 ratio
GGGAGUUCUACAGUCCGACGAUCUCCCAUAUGAAAAAAGGAGAGAACACUGGCAUCUGUUGAAAUUUGGAAGUUCUGAAAUUAUAGUAUUUUUAAAAAUUGCACUGAAGUGUAUACACAUAAAGCAGGUCUUUUAUCCAGUGACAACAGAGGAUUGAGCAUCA,4.43 ratio
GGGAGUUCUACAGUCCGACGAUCCCUCGGGAACGGGACUACUUAAAAACAGUCUUACACAGAAUUUAUGGCAAGUUUCUUGGUCUUAGAGCAUUUAUCCGAAAACAGAUUAACAAUAUUUUUCUAAGGUUUGUUUAUGAAACACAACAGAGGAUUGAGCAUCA,0.66 ratio

# Sample 3
# Target: CCNA1, cyclin fold, Cln2 fusion (human)
# Method: yeast growth competition, sequencing
# Medium: yeast
# Setting: strong parent motif
# Reference: not given
# Direction: higher = stronger binding
# Parent: RBL2 docking peptide (human); STTRRRLFVENDS
Variant,normalised enrichment score
STTRRRLFVINDS [E10I],0.314
STSRRRLFVENDS [T3S],0.431
STTRRRLFVEYDS [N11Y],0.352
STTRRRLFTENDS [V9T],0.684
STTQRRLFVENDS [R4Q],0.11
STTRRRLLVENDS [F8L],0.409
STTRRRLFVNNDS [E10N],0.668
STTYRRLFVENDS [R4Y],0.387
STNRRRLFVENDS [T3N],0.225
STTRRRLFVENPS [D12P],0.704
STTRRRLFVANDS [E10A],0.215
STTRRRLFVENDY [S13Y],0.46
STTRRRLFIENDS [V9I],1.07
WTTRRRLFVENDS [S1W],0.0198
STARRRLFVENDS [T3A],0.495
STTRRRLMVENDS [F8M],0.098
STMRRRLFVENDS [T3M],0.196
STTRRRLFVEWDS [N11W],0.489
STTRRRLFVFNDS [E10F],0.564
STTRRRLFVRNDS [E10R],0.334
STWRRRLFVENDS [T3W],0.252
STTRRRLFVENCS [D12C],0.43
STTRRVLFVENDS [R6V],0.712
SPTRRRLFVENDS [T2P],0.407
STTRRTLFVENDS [R6T],0.212

# Sample 4
# Target: PABPC1L2, full length, GST fusion (mouse, UniProt A0ABA7IW68)
# Method: RNAcompete
# Molecule type: RNA
# Medium: in vitro
# Tested at: 20 nM
# Setting: 7-mer, probes averaged, single round
# Reference: mean of 7-mers
# Direction: higher = stronger binding
# Target sequence (chain): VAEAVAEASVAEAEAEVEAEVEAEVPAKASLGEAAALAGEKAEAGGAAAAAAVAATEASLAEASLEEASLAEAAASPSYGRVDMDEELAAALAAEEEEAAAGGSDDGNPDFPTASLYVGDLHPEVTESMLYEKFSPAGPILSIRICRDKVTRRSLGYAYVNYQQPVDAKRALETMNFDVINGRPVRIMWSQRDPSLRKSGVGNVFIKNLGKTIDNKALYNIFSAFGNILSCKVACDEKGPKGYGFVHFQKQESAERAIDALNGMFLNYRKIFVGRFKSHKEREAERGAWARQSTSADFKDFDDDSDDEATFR
Sequence,7-mer Z-score
CGUAAAC,0.0515
UGCCCAG,-0.284
AUCCUUG,-0.197
AUCAUCA,-0.0736
AGAUGGA,-0.132
ACCACGC,-0.0663
UAAUGCG,-0.126
UGCGGUC,-0.0718
AAGAACG,0.457
CCAGUCU,-0.311
GGUGCUC,-0.0482
CUCCAAA,0.3
AGUUCAC,-0.179
AUGCGCA,-0.00652
UUUCCAC,-0.19
CCGCGAA,0.00254
UCGCAGA,-0.269
AUUCUUG,-0.376
UCGAGUC,-0.374
UACCAGA,0.037
ACCGGAG,0.0189
CAGAGGU,0.0877
CCGGCCG,-0.409
CGAUGAU,-0.139
